{"data": "Experimental data pooled from the literature", "B1": "enzyme (Enterococcus faecalis, UniProt Q836M4); chain MEIHFEKVTSDNRKAVENLQVFAEQQAFIESMAENLKESDQFPEWESAGIYDGNQLIGYAMYGRWQDGRVWLDRFLIDQRFQGQGYGKAACRLLMLKLIEKYQTNKLYLSVYDTNSSAIRLYQQLGFVFNGELDTNGERVMEWTHQNK", "B2": "enzyme F1161A (Homo sapiens, UniProt Q9NTI2); chain MLNGAGLDKALKMSLPRRSRIRSSVGPVRSSLGYKKAEDEMSRATSVGDQLEAPARTIYLNQPHLNKFRDNQISTAKYSVLTFLPRFLYEQIRRAANAFFLFIALLQQIPDVSPTGRYTTLVPLIIILTIAGIKEIVEDFKRHKADNAVNKKKTIVLRNGMWHTIMWKEVAVGDIVKVVNGQYLPADVVLLSSSEPQAMCYVETANLDGETNLKIRQGLSHTADMQTREVLMKLSGTIECEGPNRHLYDFTGNLNLDGKSLVALGPDQILLRGTQLRNTQWVFGIVVYTGHDTKLMQNSTKAPLKRSNVEKVTNVQILVLFGILLVMALVSSAGALYWNRSHGEKNWYIKKMDTTSDNFGYNLLTFIILYNNLIPISLLVTLEVVKYTQALFINWDTDMYYIGNDTPAMARTSNLNEELGQVKYLFSDKTGTLTCNIMNFKKCSIAGVTYGHFPELAREPSSDDFCRMPPPCSDSCDFDDPRLLKNIEDRHPTAPCIQEFLTLLAVCHTVVPEKDGDNIIYQASSPDEAALVKGAKKLGFVFTARTPFSVIIEAMGQEQTFGILNVLEFSSDRKRMSVIVRTPSGRLRLYCKGADNVIFERLSKDSKYMEETLCHLEYFATEGLRTLCVAYADLSENEYEEWLKVYQEASTILKDRAQRLEECYEIIEKNLLLLGATAIEDRLQAGVPETIATLLKAEIKIWVLTGDKQETAINIGYSCRLVSQNMALILLKEDSLDATRAAITQHCTDLGNLLGKENDVALIIDGHTLKYALSFEVRRSFLDLALSCKAVICCRVSPLQKSEIVDVVKKRVKAITLAIGDGANDVGMIQTAHVGVGISGNEGMQATNNSDYAIAQFSYLEKLLLVHGAWSYNRVTKCILYCFYKNVVLYIIELWFAFVNGFSGQILFERWCIGLYNVIFTALPPFTLGIFERSCTQESMLRFPQLYKITQNGEGFNTKVFWGHCINALVHSLILFWFPMKALEHDTVLTSGHATDYLFVGNIVYTYVVVTVCLKAGLETTAWTKFSHLAVWGSMLTWLVFFGIYSTIWPTIPIAPDMRGQATMVLSSAHFWLGLFLVPTACLIEDVAWRAAKHTCKKTLLEEVQELETKSRVLGKAVLRDSNGKRLNERDRLIKRLGRKTPPTLFRGSSLQQGVPHGYAASQEEHGAVSQEEVIRAYDTTKKKSRKK", "B3": "Cbx5 (Mus musculus, UniProt Q61686); chain MGKKTKRTADSSSSEDEEEYVVEKVLDRRMVKGQVEYLLKWKGFSEEHNTWEPEKNLDCPELISEFMKKYKKMKEGENNKPREKSEGNKRKSSFSNSADDIKSKKKREQSNDIARGFERGLEPEKIIGATDSCGDLMFLMKWKDTDEADLVLAKEANVKCPQIVIAFYEERLTWHAYPEDAENKEKESAKS", "B4": "enzyme (Nicotiana tabacum, UniProt A0A1S3XCJ5); chain MLPQLSNSSGSGYSWMQDNSASCGNFSRNGRKQGPLNSVAPTERAQISSVDDLYDFICSGPLINKIGLTPEKVAESIDKWIEYGFRLCRLFQLNQLALNEPQKIRLYHYYIPVFLWCEQEISQHSSKFKDNEEIPPLVIGFSAPQGCGKTTLVFALEYLFKITGRKAATLSIDDFYLTAEEQAKLRENNPGNLLLEFRGNAGSHDLSLSVETLAELSKVTKEGVKMKLPRYDKSAYNGRGDRADPSTWPEVEGPLTVILFEGWMLGFKPLPPEAVKAVDPQLETVNKNLEAYYDAWYKYVKSWIIIKIHDPSYVYQWRLQAEIAMRADGNPGMSDEEVRDFVSRYLPAYKAYLPTLYSEGPTGADPEHVLLVEIDEGRNPILGS", "note": "Lines come from different studies, so protocols differ. Values joined by “and” are separate records of one study, mostly repeats; a detail may differ. ± marks the error that the study gave.", "chain of UniProt P64467 (whole entry, looked up)": "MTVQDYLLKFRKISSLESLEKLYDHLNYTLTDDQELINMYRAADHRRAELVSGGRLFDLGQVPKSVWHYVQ"}
{"Substance": "nonaarginine", "target or system": "PorA peptide pore", "assay": "peptide binding, planar bilayer single-channel recording", "conditions": "0.5 µM, pH 7.4, +25 mV, trans side, 150 mM KCl", "quantity": "kon", "value": "1.96e+07 ± 2e+06 M⁻¹ s⁻¹"}
{"Substance": "insulin human", "assay": "refers to: PTEN mRNA", "system": "uninfected mouse, brain", "conditions": "i.p., dose not given", "how to read": "relative to: PBS", "quantity": "fold change", "value": 0.998}
{"Substance": "aspterric acid", "assay": "root length", "system": "Arabidopsis thaliana Col-0 seeds", "conditions": "100 µg/mL, seed germination", "how to read": "relative to: water control", "quantity": "inhibition", "value": "99.2%"}
{"Substance": "B1 (enzyme)", "target or system": "NCCCNCCCCNCCCN", "assay": "steady-state kinetics", "conditions": "pH 8, 37 °C, Hill n 1.7, added: AcCoA 1 mM", "quantity": "K0.5", "value": "76.1 µM"}
{"Substance": "HVLVMSATRR", "system": "peptide, C57BL/6J mice, male, serum", "conditions": "subcutaneous osmotic pump, 3 mg/kg/day peptide basis, 8 weeks", "quantity": "alkaline phosphatase", "value": "94 U/L and 97 U/L and 56 U/L and 79 U/L"}
{"Substance": "B2 (enzyme F1161A)", "target or system": "CCCCCCCC/C=C\\CCCCCCCC(=O)OC[C@H](COP(=O)(O)OC[C@H](N)C(=O)O)OC(=O)CCCCCCC/C=C\\CCCCCCCC", "assay": "steady-state kinetics", "conditions": "pH 7.5, 37 °C, added: ATP 5 mM", "quantity": "K0.5", "value": "32.5 µM"}
{"Substance": "B3 (Cbx5)", "target or system": "itself", "assay": "SEC-SAXS", "quantity": "subunits per oligomer", "value": 2}
{"Substance": "cnu (Escherichia coli, UniProt P64467)", "assay": "fluorescence, refers to: His45", "quantity": "pKa", "value": 5.4}
{"Substance": "ALS1 M174L/P171T/R172G (Oryza sativa)", "target or system": "CC(=O)C(=O)O", "assay": "steady-state kinetics", "conditions": "pH 7.5, 37 °C, added: FAD, MgCl2, TPP", "quantity": "Vmax", "value": "0.177 µmol/min/mg"}
{"Substance": "Polymyxin B", "system": "mouse", "conditions": "intraperitoneal, 40 mg/kg single dose, day 6", "quantity": "survival", "value": "0%"}
{"Substance": "glucagon", "assay": "isotope dilution", "system": "human, non-diabetic", "conditions": "intravenous infusion, 0.12 ng/kg/min, 160 to 180 min", "quantity": "leg extraction", "value": "24.1 ± 2.2%"}
{"Substance": "amyloid β-peptide (1–28)", "assay": "substrate, LC-MS", "system": "phosphate buffer", "conditions": "10 µM, 8 h, pH 7.4, 25 °C, added: imprinted nanoparticle 1 equiv", "quantity": "remaining substrate", "value": "16.9 ± 2.4%"}
{"Substance": "B4 (enzyme)", "target or system": "Nc1ncnc2c1ncn2[C@@H]1O[C@H](COP(=O)(O)OP(=O)(O)OP(=O)(O)O)[C@@H](O)[C@H]1O", "assay": "steady-state kinetics", "conditions": "pH 7.8, 30 °C", "quantity": "Vmax", "value": "79 µmol/min/mg"}
